Measured values pooled from the literature.
Every numbered part comes from another study and shows a few of its results, in no order. Positions count from the first letter of the parent shown.

Series 1 — target: CCNE1, cyclin fold, Cln2 fusion (human); technique: yeast growth competition, sequencing; medium: yeast; notes: weak parent motif; reference: not given; direction: higher = stronger binding
Parent: ORC1 docking peptide (human); PRARKRLELGNLG
Substitution | normalised enrichment score
PRARKRLILGNLG [E8I] | 0.244
PRARKRNELGNLG [L7N] | -0.546
PRARKRLELGNLN [G13N] | 0.397
PRARKRLELGNLF [G13F] | 0.361
PRARKRLELDNLG [G10D] | 1.16
PRARKRLELGNDG [L12D] | -0.261
PRACKRLELGNLG [R4C] | 0.454

Series 2 — technique: universal PBM; form: double-stranded DNA, one strand shown; medium: in vitro; concentration: 600 nM; direction: higher = stronger binding
Target: Sal-like protein 4, full length isoform A (SALL4, Homo sapiens, UniProt Q9UJQ4, residues 1-1053)
UniProt Q9UJQ4, sequence (whole entry, looked up): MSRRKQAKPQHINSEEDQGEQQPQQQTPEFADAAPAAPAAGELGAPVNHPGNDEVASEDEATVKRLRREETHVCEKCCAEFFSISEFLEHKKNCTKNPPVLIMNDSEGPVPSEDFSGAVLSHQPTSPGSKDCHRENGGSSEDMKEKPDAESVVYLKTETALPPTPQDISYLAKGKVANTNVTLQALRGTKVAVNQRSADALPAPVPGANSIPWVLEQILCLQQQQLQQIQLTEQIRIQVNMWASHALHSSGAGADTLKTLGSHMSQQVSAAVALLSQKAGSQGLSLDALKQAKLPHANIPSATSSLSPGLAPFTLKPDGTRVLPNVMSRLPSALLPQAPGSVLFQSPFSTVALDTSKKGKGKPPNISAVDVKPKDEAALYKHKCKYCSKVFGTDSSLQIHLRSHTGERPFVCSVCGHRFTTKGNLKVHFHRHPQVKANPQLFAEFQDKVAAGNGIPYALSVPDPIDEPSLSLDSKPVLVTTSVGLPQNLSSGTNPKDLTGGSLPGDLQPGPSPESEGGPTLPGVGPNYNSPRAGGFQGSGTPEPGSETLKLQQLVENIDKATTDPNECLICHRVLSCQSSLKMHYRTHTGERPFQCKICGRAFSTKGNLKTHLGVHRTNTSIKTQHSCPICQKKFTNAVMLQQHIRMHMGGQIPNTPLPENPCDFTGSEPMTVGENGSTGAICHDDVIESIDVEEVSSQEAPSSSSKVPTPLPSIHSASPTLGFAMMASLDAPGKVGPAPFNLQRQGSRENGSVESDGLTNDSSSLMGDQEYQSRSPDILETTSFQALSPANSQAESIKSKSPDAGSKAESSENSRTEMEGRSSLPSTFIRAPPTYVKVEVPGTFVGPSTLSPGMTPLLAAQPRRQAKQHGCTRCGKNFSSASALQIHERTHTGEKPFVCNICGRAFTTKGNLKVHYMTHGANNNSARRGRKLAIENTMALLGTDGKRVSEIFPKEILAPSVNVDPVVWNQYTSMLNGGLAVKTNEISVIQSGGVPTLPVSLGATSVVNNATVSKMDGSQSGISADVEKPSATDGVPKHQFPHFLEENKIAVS
Notes: 8-mer, flanks averaged, mean of replicates
Sequence | E-score
CGTATCGA | -0.00383
GATACTCC | -0.209
GCGAACCA | -0.0237
CACTAATC | 0.116
ACGAGCCA | -0.151
AGCCGACC | -0.311
GGACTTCA | -0.0876
AGCGATCA | -0.105
ATCGGAGA | -0.0745
CGCGTATA | 0.075

Series 3 — technique: RNA Bind-n-Seq; form: RNA; medium: in vitro; concentration: 365 nM; reference: no-protein control; direction: higher = stronger binding
Target: RNA binding protein fox-1 homolog 2, RRM domain, GST-SBP tag (RBFOX2, Homo sapiens, UniProt O43251-10, residues 100-194)
Notes: natural RNA segment, single round, ends assumed
All sequences stand within: GGGAGUUCUACAGUCCGACGAUC … UGGAAUUCUCGGGUGCCAA
Sequence | RBNS enrichment (R)
UUUGAUCAGUUGAGUAGUUGCUUAUACAUAGAUUCUUAAAAGAAAAUACUUGUGUUUCUAUUAAAUAUACACUACUAAAUACAUGUUAUGUGACUAGUAUUUAUCCUUUA | 0.39
GCACCACCGGGAUCUGUCCUGCAAAGUUGAAGGGAUCCUUUGGUGCCAGCUGGUGUUUGGAAGUAGGAACCAUGAUGGCAUUACCUGGACAAGGAGAUUGGGGACAACUC | 0.37
CACACCCGCACCAUGUACUCCCAGGAACCUCCCACCUCUAUACCACCCAUUAAGUGGCUGCUGACUUAAAUGUGCUGGAACCAGCUGCUGAAGGUGGGGCCUAGGGAGGG | 0.905
AAAACAUAUGCGCUGACAUUUUAUUACAAGCUGCAUGUCCUGACCUUCUUUGAAUUAAGUGGACUGUGGCAUGACAUUCUGCAAUAUUUUGCUGAAUUGAACACUAUUGU | 0.544
UUAAGGCUAGCCUAGAAGGGCCAAACAUGUCCUUAUUGACAAAGCUGGUCUUUGUCGCCUAAUUAGGGUAUCCUAGCUAUGUUCCAUUUCUAGUAAGGGGCUGUAGUUAG | 0.419
CAUGAUAACGCUACUGUGACGCUCUCACUGGGAAGCUGGGUGGCGAGAACUUUCUGGACGUCGAUGUUAUCUCAAAGGAAAGCUAUGCAUUGCUGCUUCUUUGUUACCUU | 0.421
UCUAUGAAAGAGUUCACUUCAUAGAGAAUAAUACUUGAGCAAAUGUAUCCAAGAAAGCAAGCAAAUGAAAAGAAACCUAUUUAUGGAAUAAACUCCAGAUCUGAAAUUCA | 0.525
GGUUUUAUUUUACUGAUUUUAAAAGGUAUAUAGAAAAAUGUAGGCCUUUAAAAAGAAACAGCAUGUAGUUUUUUAUUUUAAUAUGUUCCAUAGAGUGGAUAGGCAGACAG | 60.8

Further values, each from its own experiment
Substance | target | test | system | setting | how to read | endpoint | value
PhoQ, residues 284 288 289 292 302 303 SLSLLA | PhoP, residues 12 14 15 18 19 GHCSL (Escherichia coli, UniProt P23836) | Sort-seq, measured: YFP reporter | E. coli | PhoQ-PhoP variant library, added: 10 µM Mg2+ | reference: high Mg2+ state, higher = stronger signaling | fold induction | 31.8

Some of these lines once more (series 2):
Sequence | E-score
CGCGTATA | 0.075
CACTAATC | 0.116
CGTATCGA | -0.00383
AGCGATCA | -0.105
